Experimental data from different studies.
Parts stem from different laboratories: compare values within a part only. Changes are numbered by the printed parent chain.

Sample 1 — technique: RNA Bind-n-Seq; molecule type: RNA; medium: in vitro; concentration: 365 nM; relative to: no-protein control; reading: higher = stronger binding; endpoint: RBNS enrichment (R)
Target: RNA binding protein fox-1 homolog 2, RRM domain, GST-SBP tag (RBFOX2, Homo sapiens, UniProt O43251-10, residues 100-194)
Notes: natural RNA segment, single round, ends assumed
Shared flanks, not repeated: GGGAGUUCUACAGUCCGACGAUC … UGGAAUUCUCGGGUGCCAA
Target sequence (chain): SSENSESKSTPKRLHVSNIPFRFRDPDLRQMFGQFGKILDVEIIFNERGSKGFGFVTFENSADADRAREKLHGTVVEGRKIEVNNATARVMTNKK
UGCCCGCCAUGCAUCCUUGAUGUUUGCCGCCUGGCGGCUGAGCCCUUAGCCUCGCUGUAGAGACUUCUGUCGCCCUGGGUAGAGUUUAUUUUUUUGAUGGCUAAGCUGUU: 0.588
UUUGAUGGGAAGAAAAGGUACAUGUUUACAAAGAGGUUUUAUGAAAAGAAUAAAAAUUGACUUCUUGCUUGUACAUAUAGGAGCAAUACUAUUAUAUUAUGUAGUCCGUU: 2.04
UGUGUAAGUAUACUCUGUGAUGUUCAUACAGUGAUGAAAUCACCCAAAGACACAUUUCUCAGAACGUAGCCCCAUCAUGAAGUGACGUGACUACCAGAGAUUUCUGGAAA: 0.445
CUGUGUUCAGUUAUGAGACUCUUUGCAUAGUAUAGGGACUUGAAAGUUUUAUGAGACGGGUGUAAUAAUAUCUCCACCUGUGAUUUGGGGGUGGGACUCUUAUUUUGGGU: 1.54
GGCAUGCCACACCACUGCCCAGCUCGUUUAUAUUCUUAAAAGCAAAAUAUUACAUUUCAUUACUGCUUCAUGAAGACAGAAAGUAAUUGAAACUUAAACAUAUAAAAACA: 0.416
GUAGUGGCUGUGCUAUACCCAGCAUCAUGCUUAACAGCGUGUUGCCCUUCUGAGCCUGUUGUACUCACUGAUCUCUUUAAAAACAAAAAAUAGCUCUUGUAAAAGGUCAC: 0.538
UGACCUUUAUUGAAUCUGAAAUGAUACAUAGCUGUGUGUGUAUAUAUAUUUUUUAAAAAUAGGUUCAUUGAACAUAAAUCAGAUUGUUUGAGGUCAUUUUUCAGCAACAU: 0.759
AGGCCCUUUUGCAAGGCUUAGGGUGUGGCCAGCCCUGAAAGCUACUUGGACACAGGUUUCAGCUGGCCCCAGCCCAGAAGUGACCCCCAGAAAGGGAGGGCCACCGCUUU: 0.773
UUCUGUGUUUGAAGUAUGUGCAUAUGUGCUUUACAGAAUAAAACAUCUGGAUUUACUUGGUUUGCCGUUUUAAUUCCAGCCGGAUUGGUGUUCUUUAAACAAAAAGUAGG: 0.418
UAUGUGAAAGUCAUUUUACAUUUCAAAGCAGUGUGUGUUUCUUAUUUUUAUAUUUUUAACUCUUUAUUCUUGGAUGUAUAAAGUGAACUUUUUGGCUUCUGUAAGUAUGC: 0.49
CAAGAUGAAUGAACUAAUGGAGAAAUAGAAAGUCUUCAGUGAUGGCCUACGCCAAAGCACAGGAUGGGGCGGGCAGGAAGCCCUCUCCCAAGAUCGAGUUGGCCGAGGAU: 0.492
GGACUACCUGAAACCCCUAACUGGGGCGACUGAGCCUGUAGUGUGGUCAGUUCAAAGUUGCAUUUGGGAUUCUAUGUCUUCCAAAUUGAACCGUCUGUAAUCAGUACAGC: 0.211

Sample 2 — technique: RNAcompete; molecule type: RNA; medium: in vitro; concentration: 20 nM; notes: 7-mer, probes averaged, single round; relative to: mean of 7-mers; reading: higher = stronger binding; endpoint: 7-mer Z-score
Target: PABPC1L2, full length, GST fusion (mouse, UniProt A0ABA7IW68)
Target sequence (chain): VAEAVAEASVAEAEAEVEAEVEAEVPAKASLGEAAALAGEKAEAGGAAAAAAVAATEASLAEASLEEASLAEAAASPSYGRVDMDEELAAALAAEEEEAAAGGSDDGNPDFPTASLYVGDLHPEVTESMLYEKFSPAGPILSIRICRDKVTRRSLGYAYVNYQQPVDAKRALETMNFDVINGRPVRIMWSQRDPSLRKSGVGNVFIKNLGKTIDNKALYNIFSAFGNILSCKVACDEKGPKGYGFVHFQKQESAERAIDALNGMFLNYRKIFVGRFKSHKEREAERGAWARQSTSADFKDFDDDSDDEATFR
GAUCCAA: 0.158
CUGGGAG: 0.0515
GUCUAAG: -0.199
AUUCCCG: -0.306
GAGUAUU: -0.233
ACAGCCG: -0.164
GGAACUA: -0.0627
AAGCCCC: -0.264
AAAGUGA: 1.48
CCCUUUG: -0.479
GCCUUCC: -0.452
AUUGCAC: -0.19
GGCUUAG: -0.0047
ACACUAA: 0.276
GGCAAAU: 0.318
AUUCGAA: -0.155
AUGUAUA: -0.0228
GGGCCCA: -0.0391

Sample 3 — target: JUN, bZIP domain (human); technique: DHFR protein complementation; medium: yeast; relative to: wild-type JUN-FOS pair; reading: higher = stronger binding; endpoint: binding fitness
Notes: single substitutions, most at no-binding floor
Parent: JUN, bZIP domain (human); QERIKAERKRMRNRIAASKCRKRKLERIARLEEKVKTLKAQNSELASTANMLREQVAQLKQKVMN; partner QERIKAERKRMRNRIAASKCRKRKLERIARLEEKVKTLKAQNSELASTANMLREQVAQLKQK
I28M: -0.454 natural log
S47Y: -0.261 natural log
S47F: -0.282 natural log
T37R: -0.197 natural log
Q55A: -0.574 natural log
A57M: -0.357 natural log
L59C: -1.08 natural log
V35I: -0.0202 natural log
R53F: -0.983 natural log
K36W: -0.878 natural log
T48I: -0.253 natural log
Q41G: -1.11 natural log
S43M: -0.184 natural log
K34T: -0.0203 natural log
E32T: -0.497 natural log
E54D: -0.385 natural log
R53Q: -0.499 natural log
Q41N: -0.819 natural log
A40S: -0.321 natural log
A57D: -0.166 natural log
V35F: -0.813 natural log
A57H: -0.296 natural log
L59A: -0.758 natural log
E44Q: -0.3 natural log
T48N: -0.568 natural log

Sample 4 — technique: RNA Bind-n-Seq; molecule type: RNA; medium: in vitro; concentration: 200 nM; notes: whole 134-nt RNA, ends assumed; added: 150 mM LiCl; relative to: input library; reading: higher = stronger binding; endpoint: log2 enrichment; library: 7-deaza-guanosine replaces G
Target: Fragile X messenger ribonucleoprotein 1, C-terminal low-complexity region (Fmr1, Mus musculus, UniProt P35922)
Shared flanks, not repeated: GGGAGUUCUACAGUCCGACGAUC … UGGAAUUCUCGGGUGUCAAGG
AGUCCUGUGCUACACAUCGUAUGUACCGAAUCGGGGAAAAAAAGGGGAGGGGAGGGGAAAGUAUUAUGUUACGCCGUUCGGAUCUGCACU: 0.0139
CUCAAGUCCUGUGCUACACAUCGUAUGUACCGAAUCGGGGAAGGGAAGGGAAGGAAAGUAUUAUGUUACGCCGUUCGGAUCUGCACUUCC: -0.813
CUCAAGUCCUGUGCUACACAUCGUAUGUACCGAAUCGGGGAGGGAGGGGAGGGGAAAGUAUUAUGUUACGCCGUUCGGAUCUGCACUUCC: -0.401
AGUGACCAUUUUAGUUAAAUUUUGUUCCUCUUCCCCCUUUUCACUUUCCUGGAAGAUCGAUGUCCCGAUCAGGAAGGUAGAGAGUUUUCC: 0.727
UCCUGUGCUACACAUCGUAUGUACCGAAUCGGGCCCCCCGGCCCCCCGGGGCCCCCCGGGAAAGUAUUAUGUUACGCCGUUCGGAUCUGC: -0.61
UUCCUCAAGUCCUGUGCUACACAUCGUAUGUACCGAAUCGGGUGGUGGUGGAAAGUAUUAUGUUACGCCGUUCGGAUCUGCACUUCCAGC: -0.0361
UCCUGUGCUACACAUCGUAUGUACCGAAUCGGGGCCCCCGGGCCCCCGGGCCCCCGGGGAAAGUAUUAUGUUACGCCGUUCGGAUCUGCA: -2.52
ACCAUGCAGGUGGGCAUCUUUGGGAAGUGGGGCAAGGGGGGGAUAGGGAGGGGGGUAACACUUUGGGAGCAGGUGGUCCCAGGUCGUUUC: 1.6
AGUCCUGUGCUACACAUCGUAUGUACCGAAUCGGGGAAAGGGGAAAGGGGUUUGGGGAAAGUAUUAUGUUACGCCGUUCGGAUCUGCACU: -1
UCAAGUCCUGUGCUACACAUCGUAUGUACCGAAUCGGAAAAAGGAGGAAAAAGGAAAGUAUUAUGUUACGCCGUUCGGAUCUGCACUUCC: -0.314
CCUGUGCUACACAUCGUAUGUACCGAAUCGGGUUUUUUUGGGUUUUUUUGGUUUUUUUGGGAAAGUAUUAUGUUACGCCGUUCGGAUCUG: -0.368

Repeated from above (sample 1):
UGACCUUUAUUGAAUCUGAAAUGAUACAUAGCUGUGUGUGUAUAUAUAUUUUUUAAAAAUAGGUUCAUUGAACAUAAAUCAGAUUGUUUGAGGUCAUUUUUCAGCAACAU: 0.759
UUUGAUGGGAAGAAAAGGUACAUGUUUACAAAGAGGUUUUAUGAAAAGAAUAAAAAUUGACUUCUUGCUUGUACAUAUAGGAGCAAUACUAUUAUAUUAUGUAGUCCGUU: 2.04
UGUGUAAGUAUACUCUGUGAUGUUCAUACAGUGAUGAAAUCACCCAAAGACACAUUUCUCAGAACGUAGCCCCAUCAUGAAGUGACGUGACUACCAGAGAUUUCUGGAAA: 0.445
CUGUGUUCAGUUAUGAGACUCUUUGCAUAGUAUAGGGACUUGAAAGUUUUAUGAGACGGGUGUAAUAAUAUCUCCACCUGUGAUUUGGGGGUGGGACUCUUAUUUUGGGU: 1.54
UAUGUGAAAGUCAUUUUACAUUUCAAAGCAGUGUGUGUUUCUUAUUUUUAUAUUUUUAACUCUUUAUUCUUGGAUGUAUAAAGUGAACUUUUUGGCUUCUGUAAGUAUGC: 0.49
